Assay results of several laboratories.
Each numbered part is a random draw from the data of one study; scales do not carry over between parts.

Set 1
Organism: Saccharomyces cerevisiae
Observed: binding
Method: competitive growth deep sequencing
Form: peptide
Strain: cyclin D3-Cln2 fusion strain
Notes: peptide tiling library
Reading: direction not given
| Sequence | enrichment score |
| --- | --- |
| PLRKAKRARLCSSSSS | 1.77 |
| QDYERRLLRQIVIQNE | -0.862 |
| TRRRLFVENDSP | -0.967 |
| KRRLDLETDHQY | -1.05 |
| EPKTLFLGAGDFQF | 1.72 |
| LKGRRLVFDN | 0.327 |
| AGSAKRRLFGEDPPKE | -0.57 |
| RSLKLDGLLEEN | -0.472 |
| VLLKRLQDVVSERANH | 3.11 |
| ESSTVSEEDYFSSHRD | 1.21 |
| IQKKLRFEDTLEFVGF | -1.44 |
| RVSGLLSWTLSRVLWL | -0.85 |
| KDDDKAWEYEERDRRS | 0.814 |
| SPREGHMMDALYAQVK | 0.372 |

Set 2
Target: RNA binding protein fox-1 homolog 2, RRM domain, GST-SBP tag (RBFOX2, Homo sapiens, UniProt O43251-10, residues 100-194)
Method: RNA Bind-n-Seq
Form: RNA
Sample: in vitro
Concentration: 365 nM
Notes: natural RNA segment, single round, ends assumed
Baseline: no-protein control
Reading: higher = stronger binding
Constant ends, left off below: GGGAGUUCUACAGUCCGACGAUC … UGGAAUUCUCGGGUGCCAA
Target sequence (chain): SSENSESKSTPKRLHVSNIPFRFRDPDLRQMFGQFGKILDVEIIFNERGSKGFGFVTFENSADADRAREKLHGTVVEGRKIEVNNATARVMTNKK
| Sequence | RBNS enrichment (R) |
| --- | --- |
| GGGGAUUUAGACUGAUGUGUGCAUUGGCUGAGCUGAACCUUGGUCUCUUGAUGUCCCUGGAGAGCUGAGGUCGAGACCCCAUUCAUGCAGGAGGAGGAAGAAGGAAGUGU | 1.2 |
| AGUAGUAGUAGUAGUAGUAGUAGUUCCAUGUAGGGGCAGGAUCCUUUGGAAAAGUACCGUAUGUUCCUAGACCCCUUCCUUCCUUCCUUCCUUCCUUCCUUCUUUCCUUC | 0.864 |
| UUAGGUGAUGUCCUCAGACCUGGACCCCCACCAGCCUCACUCCCCAUCCCAACCAGAGAUGGCUCACUUCGGAUCGAGGGUUGACUACAUCUCAUCAUCUCACGAAUCUG | 0.554 |
| UGGCAAUGAUUAAACCCAGCUUAGCAACGUGAGAAUUAUUUUUUUUUUUCUAAGAAGAAAAUUCAGAAGAAAAGUAACUGAGUUUUGUUACUGGUAAAAUGGAAAUACUU | 0.447 |
| UGUGAUGUGUUCCAGGUUUAGCCUAGGGUCCAUUCUUGUCACUGUUUCUUACUGUGUAGAGUACCUUUGGCAAUGUCUCUUCUGUACAUAUUUAUUUAUUUGUGUUCACG | 0.252 |
| CUUCAUUGGCAUUGUUAGUCCCACAGGCCAAGGAUAAGGUUGAAAUGAGACGGCUUGUGUGUGAAAAGAUUUUGGAAAUUACACAGAUGUGGGCUUGUUAUUGGGAUGAA | 2.24 |
| UCACUGUUGUUUGUAUUUAUGAAAUUCUGAAAUUAUGGGGAAUCAGCGUAAUGAUUAAGUUAUUCAUCACCAGGCUGUAAGCAAUAUCUUGAGUUUGUAGCUUAGAAUUG | 0.399 |
| CAGUUCUAACUCUAGCUAGAGGCCAGGCUGUGUGCAGAGCUAAAGCACAAAUGAGCAGUACAUCAGCAUGGGCAGAGAAAAUACAGGACUCCAGAUGGGAAGGUUUUAAG | 7.38 |

Set 3
Target: Prothrombin, mature alpha-thrombin (F2, Homo sapiens, UniProt P00734)
Method: aptamer microarray, sandwich
Form: DNA with 2'F-ANA
Sample: in vitro
Concentration: 200 nM
Notes: whole 15-mer aptamer, many near background
With: Cy3 exosite-II aptamer, 400 nM
Reading: higher = stronger binding
Sequence: GGTTGGTGTGGTTGG
| Modification | mean fluorescence intensity [a.u.] |
| --- | --- |
| 2'F-ANA at 3 7 8 11 12 13 14 15 | 783 |
| 2'F-ANA at 1 2 4 5 8 13 | 47.4 |
| 2'F-ANA at 2 4 6 7 9 10 11 12 14 15 | 59.3 |
| 2'F-ANA at 2 4 5 6 8 9 10 11 12 13 15 | 79.6 |
| 2'F-ANA at 5 11 12 13 14 | 45.4 |
| 2'F-ANA at 5 6 13 14 | 42.1 |
| 2'F-ANA at 2 3 8 9 11 | 804 |
| 2'F-ANA at 1 2 3 6 9 11 13 14 | 60.1 |
| 2'F-ANA at 1 3 4 5 6 7 8 11 12 13 15 | 75.3 |
| 2'F-ANA at 3 4 5 6 8 9 12 13 15 | 107 |
| 2'F-ANA at 1 2 3 5 7 9 11 13 | 50.8 |
| 2'F-ANA at 2 4 5 6 11 13 | 84.8 |
| 2'F-ANA at 3 4 5 6 7 8 9 10 12 14 | 50.1 |
| 2'F-ANA at 2 3 5 6 10 13 14 | 127 |
| 2'F-ANA at 1 3 4 5 7 10 | 45.9 |
| 2'F-ANA at 1 2 5 6 10 15 | 49 |
| 2'F-ANA at 1 5 7 9 11 12 13 | 70.7 |
| 2'F-ANA at 2 3 4 5 9 10 11 12 14 | 51.4 |
| 2'F-ANA at 3 5 6 7 9 10 14 | 48.5 |
| 2'F-ANA at 4 5 8 9 12 15 | 159 |
| 2'F-ANA at 1 3 4 6 7 9 11 13 15 | 97.6 |

Set 4
Target: Phosphate system positive regulatory protein PHO4, full length, GST-tagged (PHO4, Saccharomyces cerevisiae, UniProt P07270, residues 1-312)
Method: competition protein-binding microarray
Form: double-stranded DNA, one strand shown
Sample: in vitro
Concentration: 2 µM
Notes: whole 60-bp probe, lowest competitor level
With: Cbf1 competitor, 0.05 µM
Reading: higher = stronger binding
Constant ends, left off below: … GTCTTGATTCGCTTGACGCTGCTG
Residues (chain): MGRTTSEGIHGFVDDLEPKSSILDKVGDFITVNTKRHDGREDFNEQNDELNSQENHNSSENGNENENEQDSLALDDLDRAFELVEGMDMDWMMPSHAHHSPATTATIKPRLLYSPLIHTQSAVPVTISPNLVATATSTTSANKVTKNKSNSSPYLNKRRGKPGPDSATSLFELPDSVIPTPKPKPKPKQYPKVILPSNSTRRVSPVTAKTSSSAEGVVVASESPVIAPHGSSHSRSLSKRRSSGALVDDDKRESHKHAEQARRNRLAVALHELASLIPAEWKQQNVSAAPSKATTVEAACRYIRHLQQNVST
| Sequence | fluorescence intensity [a.u.] |
| --- | --- |
| GATCCTGAGAGGTCCCATGTGCTTTCCAATAACAGT | 11300 |
| TACAGGTCAATTCAACACGTGGTCGTTCTTCACCAG | 17400 |
| TTTTACGGACATAAGAACGTGCCGACCATTCTGGGA | 14500 |
| CACTTCCTGGGCATCCACATGCGAAGTTGAGCTAAA | 8760 |
| GTTTAGGATATCGGTATCGTGGGTAAAACTCAACCA | 6940 |
| TCCTCTCTGGACGGCATCGTGTCGGACGACGCCGCA | 7160 |
| TTGTCTGTGCATTGGCATGTGCAAGCATTCGATGAA | 8380 |
| TGCAAGATCAAGTGCCGCGTGTCCTTATTGTTGTCC | 11200 |
| GACTTCTCCAAAGACAACGTGCTTTCCGTCCAACCA | 14300 |
| AAAGCGGTAATTTTTCACGTGTTGTCAAATATCTAT | 14900 |
| CGTCCTAGTGATTGCAGAGTGGGTGCCATGAGGAAG | 6810 |
| CGGGGTTAAGTTTGTCACTAAACTTGCTTGCAGCAG | 3390 |
| AAAGCGGTAATTTGTCCCGTGGGTGCAGATATCTAT | 9480 |
| ATCTTTGAGTGTCGGCACGTGTTGGGTTACGAATTC | 17200 |
| CTTCTGTAAATTTGTACAGTGGGTGGACGCGCCCCG | 3770 |
| CTTCTGTAAATTTGTCACTCAACTTGACGCGCCCCG | 3550 |
| CGAAATAAAAGCCATCACGTGGAGTGTAGCACCGCC | 14600 |
| CTTCTGTAAATTTGTCACAGAACTTGACGCGCCCCG | 3210 |
| AAAGCGGTAATTTTTCACGTGAGATCAAATATCTAT | 11200 |

Set 5
Target: Hepatocyte nuclear factor 3-beta, forkhead domain (FOXA2, Homo sapiens, UniProt Q9Y261, residues 142-269)
Method: protein-binding microarray
Form: double-stranded DNA, one strand shown
Sample: in vitro
Concentration: not given
Notes: k-mer, scored over probes, only values ≥0.25
Reading: higher = stronger binding
Target sequence (chain): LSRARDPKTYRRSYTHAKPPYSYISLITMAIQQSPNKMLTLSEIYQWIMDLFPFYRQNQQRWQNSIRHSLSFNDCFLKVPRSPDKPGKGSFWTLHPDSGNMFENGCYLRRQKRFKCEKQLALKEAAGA
| Sequence | E-score |
| --- | --- |
| GGTATTTA | 0.271 |
| GTTTGTTA | 0.271 |
| ATAAATTA | 0.352 |
| CTATGTTA | 0.274 |
| GTTGTGTA | 0.289 |
| ACATATAC | 0.408 |
| GTATGCAC | 0.276 |
| TGTAGTAA | 0.269 |
| ATTGTGTA | 0.325 |
| GAAATATA | 0.287 |
| ATCAATAA | 0.289 |
| ATGTCATA | 0.302 |
| ATCGTTTA | 0.29 |
| CACATATC | 0.338 |

Excerpt of the above (set 4):
| Sequence | fluorescence intensity [a.u.] |
| --- | --- |
| TTTTACGGACATAAGAACGTGCCGACCATTCTGGGA | 14500 |
| CTTCTGTAAATTTGTCACTCAACTTGACGCGCCCCG | 3550 |
| AAAGCGGTAATTTTTCACGTGTTGTCAAATATCTAT | 14900 |
| GACTTCTCCAAAGACAACGTGCTTTCCGTCCAACCA | 14300 |
| CGTCCTAGTGATTGCAGAGTGGGTGCCATGAGGAAG | 6810 |
| AAAGCGGTAATTTTTCACGTGAGATCAAATATCTAT | 11200 |
| ATCTTTGAGTGTCGGCACGTGTTGGGTTACGAATTC | 17200 |
| CGAAATAAAAGCCATCACGTGGAGTGTAGCACCGCC | 14600 |
| GTTTAGGATATCGGTATCGTGGGTAAAACTCAACCA | 6940 |
